Experimental data from different studies.
Numbered parts are unrelated; each lists some results of a single study.
UniProt O43683, sequence (whole entry, looked up): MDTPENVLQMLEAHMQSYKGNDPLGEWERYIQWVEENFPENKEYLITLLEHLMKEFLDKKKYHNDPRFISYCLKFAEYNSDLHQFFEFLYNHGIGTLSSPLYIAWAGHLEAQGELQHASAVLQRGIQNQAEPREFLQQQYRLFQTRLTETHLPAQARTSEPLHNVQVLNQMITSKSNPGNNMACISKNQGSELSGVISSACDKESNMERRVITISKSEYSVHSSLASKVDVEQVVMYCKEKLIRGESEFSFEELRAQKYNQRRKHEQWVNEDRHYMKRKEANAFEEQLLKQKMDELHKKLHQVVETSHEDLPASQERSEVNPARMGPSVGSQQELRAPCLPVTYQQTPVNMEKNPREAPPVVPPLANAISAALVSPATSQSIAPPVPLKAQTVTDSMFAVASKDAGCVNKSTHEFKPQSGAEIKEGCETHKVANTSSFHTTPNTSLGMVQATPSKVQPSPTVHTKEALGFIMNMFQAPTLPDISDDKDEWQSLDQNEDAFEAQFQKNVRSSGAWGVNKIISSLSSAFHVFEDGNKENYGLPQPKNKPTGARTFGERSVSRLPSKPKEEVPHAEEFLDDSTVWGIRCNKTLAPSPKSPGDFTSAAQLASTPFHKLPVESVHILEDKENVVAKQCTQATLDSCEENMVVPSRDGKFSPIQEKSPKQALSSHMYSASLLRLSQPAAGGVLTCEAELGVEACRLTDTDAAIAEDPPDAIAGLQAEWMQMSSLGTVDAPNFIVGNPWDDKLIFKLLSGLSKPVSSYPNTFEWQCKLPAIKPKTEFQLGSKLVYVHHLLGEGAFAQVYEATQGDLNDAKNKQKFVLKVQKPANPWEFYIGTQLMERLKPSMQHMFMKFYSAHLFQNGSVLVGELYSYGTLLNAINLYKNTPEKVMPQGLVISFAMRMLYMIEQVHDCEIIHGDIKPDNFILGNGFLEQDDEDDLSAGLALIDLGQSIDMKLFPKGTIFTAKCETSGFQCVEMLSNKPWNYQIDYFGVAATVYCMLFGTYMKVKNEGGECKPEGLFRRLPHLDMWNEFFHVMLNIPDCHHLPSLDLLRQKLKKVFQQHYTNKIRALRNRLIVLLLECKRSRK

Sample 1 — technique: protein-binding microarray; form: double-stranded DNA, one strand shown; sample: in vitro; tested at: 2540 nM top; notes: 60-bp whole probe; together with: salmon DNA 0.4 mg/ml; reference: random background probes; reading: higher = stronger binding; shared flanks, not repeated: GCCTAGCAC … GTCTTGATTCGCTTGACGCTGCTG
Target: Interferon regulatory factor 3, full length, phosphomimetic (IRF3, Homo sapiens, UniProt Q14653, residues 1-427, S386D/S396D/S398D/S402D/T404D/S405D)
UniProt Q14653, sequence (whole entry, unmodified, looked up): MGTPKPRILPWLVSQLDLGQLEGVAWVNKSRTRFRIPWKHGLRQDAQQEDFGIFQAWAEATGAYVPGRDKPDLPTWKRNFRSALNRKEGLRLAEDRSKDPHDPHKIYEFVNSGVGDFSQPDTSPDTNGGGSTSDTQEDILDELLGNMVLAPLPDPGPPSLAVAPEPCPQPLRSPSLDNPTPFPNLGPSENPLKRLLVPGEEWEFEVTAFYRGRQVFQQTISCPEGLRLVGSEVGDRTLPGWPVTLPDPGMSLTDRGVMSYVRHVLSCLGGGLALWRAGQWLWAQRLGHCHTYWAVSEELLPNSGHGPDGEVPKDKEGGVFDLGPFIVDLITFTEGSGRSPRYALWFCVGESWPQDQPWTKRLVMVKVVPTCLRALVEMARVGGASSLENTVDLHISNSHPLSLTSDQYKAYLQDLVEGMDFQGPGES
Strand	fitted relative affinity [z-score]
CCCTGAGGAATCCTGCAGCCGTGCTAG	-0.425
TTAGATCTCATTTTCGATTAGTGCTAG	2.37
GACGGTTCCGGTTCCGGGACGTGCTAG	4.97
TTAGGACGGGGACTGGGTTAGTGCTAG	-0.868
GACGATTGCGGGTATCGAGACGTGCTA	-0.0388
GACGGTTTCGTTTTCGGGACGTGCTAG	8.58
TTAGGTATCGACTTTCCGTTAGTGCTA	1.78
TCACTAGTGTTTTTCTCACTGTGCTAG	0.102

Sample 2 — effect on: cell-free assay; technique: competition with immobilised ligand; tested at: 1 µM
Structure (SMILES): CCCOc1ccc([C@H]2[C@H](C(=O)O)[C@@H](c3ccc4c(c3)OCO4)CN2CC(=O)Nc2c(CC)cccc2CC)cc1
target	remaining binding [%]
Tyrosine-protein kinase ABL1, phosphorylated (ABL1, Homo sapiens, UniProt P00519, T315I)	77
Hepatocyte growth factor receptor (MET, Homo sapiens, UniProt P08581)	100
Mitotic checkpoint serine/threonine-protein kinase BUB1 (BUB1, Homo sapiens, UniProt O43683)	98

Sample 3 — technique: protein binding microarray; form: double-stranded DNA, one strand shown; sample: in vitro; tested at: not given; reference: not given; reading: higher = stronger binding
Target: Histone acetyltransferase KAT6A, both winged helices, GST fusion (KAT6A, Homo sapiens, UniProt Q92794, residues 1-181)
Notes: 8-mer, flanks averaged, mean of 2 arrays, mostly near background
Residues (chain): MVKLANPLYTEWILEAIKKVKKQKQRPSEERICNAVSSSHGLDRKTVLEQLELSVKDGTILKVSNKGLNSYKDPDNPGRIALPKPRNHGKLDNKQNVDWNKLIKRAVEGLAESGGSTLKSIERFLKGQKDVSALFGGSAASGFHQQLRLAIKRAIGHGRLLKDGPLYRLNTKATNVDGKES
Strand	E-score
CAGTCGCG	0.202
ATGTTGTA	-0.0664
AAGAGAAT	-0.112
TCCTCTCA	-0.301
GTCTGGAA	-0.111
ACCGCGCG	0.39
CCAATATC	-0.0985
AGGCGTAT	-0.0554

Further values, each from its own experiment
Compound	system	quantity	result
CCC[C@H]1NC(=O)CSC[C@@H](C(=O)OCC)N(C)C(=O)[C@H](CC(C)C)NC(=O)[C@H](C)N(C)C(=O)[C@H](CC(C)C)NC(=O)[C@H](C)N(C)C(=O)[C@H]2CCCN2C(=O)[C@@H](CC(C)C)NC(=O)CN(CCC)C1=O	hydrocarbon/water	logD	1.01

Excerpt of the above (sample 1):
Strand	fitted relative affinity [z-score]
TTAGGTATCGACTTTCCGTTAGTGCTA	1.78
TCACTAGTGTTTTTCTCACTGTGCTAG	0.102
